Results of several laboratories.
Every numbered part comes from another study and shows a few of its results, in no order.
UniProt Q9NRP7, sequence (whole entry, looked up): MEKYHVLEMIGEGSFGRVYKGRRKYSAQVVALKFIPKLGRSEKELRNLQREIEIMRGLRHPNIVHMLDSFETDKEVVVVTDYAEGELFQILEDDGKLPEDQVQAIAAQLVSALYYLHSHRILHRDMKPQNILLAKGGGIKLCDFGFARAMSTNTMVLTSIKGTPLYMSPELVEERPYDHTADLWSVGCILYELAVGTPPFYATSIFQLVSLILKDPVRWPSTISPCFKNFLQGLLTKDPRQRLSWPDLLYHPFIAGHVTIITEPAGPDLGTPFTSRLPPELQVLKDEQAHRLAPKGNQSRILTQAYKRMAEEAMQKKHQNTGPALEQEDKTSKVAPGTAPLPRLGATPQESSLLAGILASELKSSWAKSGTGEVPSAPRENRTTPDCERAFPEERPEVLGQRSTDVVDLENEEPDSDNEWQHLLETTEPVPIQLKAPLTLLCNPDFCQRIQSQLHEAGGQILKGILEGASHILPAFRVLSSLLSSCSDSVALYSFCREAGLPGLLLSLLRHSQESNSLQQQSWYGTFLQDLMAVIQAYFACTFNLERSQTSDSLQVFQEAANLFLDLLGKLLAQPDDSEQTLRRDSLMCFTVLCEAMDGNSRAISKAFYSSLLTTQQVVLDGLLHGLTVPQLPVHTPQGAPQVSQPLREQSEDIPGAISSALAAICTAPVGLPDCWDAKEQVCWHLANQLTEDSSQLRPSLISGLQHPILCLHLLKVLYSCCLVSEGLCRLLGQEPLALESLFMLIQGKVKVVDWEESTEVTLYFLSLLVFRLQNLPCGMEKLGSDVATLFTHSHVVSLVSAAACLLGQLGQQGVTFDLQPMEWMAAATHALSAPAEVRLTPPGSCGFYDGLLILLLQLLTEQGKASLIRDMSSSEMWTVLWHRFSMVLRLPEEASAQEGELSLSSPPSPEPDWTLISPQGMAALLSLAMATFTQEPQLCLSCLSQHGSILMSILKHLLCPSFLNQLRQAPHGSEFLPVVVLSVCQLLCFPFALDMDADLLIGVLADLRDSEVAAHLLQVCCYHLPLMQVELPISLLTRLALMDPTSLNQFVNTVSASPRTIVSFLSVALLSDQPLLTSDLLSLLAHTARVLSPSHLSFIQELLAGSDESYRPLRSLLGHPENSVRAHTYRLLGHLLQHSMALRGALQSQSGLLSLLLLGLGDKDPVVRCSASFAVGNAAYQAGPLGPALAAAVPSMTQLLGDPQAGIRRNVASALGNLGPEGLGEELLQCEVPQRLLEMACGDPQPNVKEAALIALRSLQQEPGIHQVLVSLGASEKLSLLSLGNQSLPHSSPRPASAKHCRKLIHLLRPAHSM
UniProt Q15303, sequence (whole entry, looked up): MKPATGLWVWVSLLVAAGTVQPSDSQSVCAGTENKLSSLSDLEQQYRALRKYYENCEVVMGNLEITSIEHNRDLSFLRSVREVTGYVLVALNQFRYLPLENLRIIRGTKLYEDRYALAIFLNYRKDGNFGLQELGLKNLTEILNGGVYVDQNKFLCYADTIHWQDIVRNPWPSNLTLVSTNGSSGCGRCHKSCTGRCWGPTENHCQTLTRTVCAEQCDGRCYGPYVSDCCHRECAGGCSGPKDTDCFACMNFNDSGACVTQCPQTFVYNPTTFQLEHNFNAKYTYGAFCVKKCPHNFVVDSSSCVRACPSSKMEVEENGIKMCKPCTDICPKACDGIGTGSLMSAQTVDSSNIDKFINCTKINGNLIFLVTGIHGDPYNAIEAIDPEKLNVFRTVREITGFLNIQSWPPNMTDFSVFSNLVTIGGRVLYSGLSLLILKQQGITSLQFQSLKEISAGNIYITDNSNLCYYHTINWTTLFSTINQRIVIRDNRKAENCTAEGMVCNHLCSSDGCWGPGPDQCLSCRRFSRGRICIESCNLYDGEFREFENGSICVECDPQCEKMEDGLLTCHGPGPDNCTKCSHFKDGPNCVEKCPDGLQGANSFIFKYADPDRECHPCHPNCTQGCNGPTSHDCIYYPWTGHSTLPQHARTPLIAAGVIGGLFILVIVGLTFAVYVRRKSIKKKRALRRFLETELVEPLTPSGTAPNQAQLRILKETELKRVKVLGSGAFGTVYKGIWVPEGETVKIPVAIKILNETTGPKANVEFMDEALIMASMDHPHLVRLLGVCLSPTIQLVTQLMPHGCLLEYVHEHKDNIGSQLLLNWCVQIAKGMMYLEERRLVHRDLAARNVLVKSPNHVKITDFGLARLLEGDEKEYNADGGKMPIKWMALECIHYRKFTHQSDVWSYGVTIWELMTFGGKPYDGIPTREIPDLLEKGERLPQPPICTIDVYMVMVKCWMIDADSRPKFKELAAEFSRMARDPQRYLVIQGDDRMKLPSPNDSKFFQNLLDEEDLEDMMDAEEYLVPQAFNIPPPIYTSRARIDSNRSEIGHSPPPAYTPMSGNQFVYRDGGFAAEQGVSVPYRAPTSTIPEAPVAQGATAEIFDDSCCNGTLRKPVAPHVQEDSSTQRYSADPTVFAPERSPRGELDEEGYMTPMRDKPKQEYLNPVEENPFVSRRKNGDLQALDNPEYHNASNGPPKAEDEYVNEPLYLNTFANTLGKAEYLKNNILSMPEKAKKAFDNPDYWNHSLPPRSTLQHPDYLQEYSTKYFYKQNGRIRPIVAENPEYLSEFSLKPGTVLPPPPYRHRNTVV
UniProt Q00535, sequence (whole entry, looked up): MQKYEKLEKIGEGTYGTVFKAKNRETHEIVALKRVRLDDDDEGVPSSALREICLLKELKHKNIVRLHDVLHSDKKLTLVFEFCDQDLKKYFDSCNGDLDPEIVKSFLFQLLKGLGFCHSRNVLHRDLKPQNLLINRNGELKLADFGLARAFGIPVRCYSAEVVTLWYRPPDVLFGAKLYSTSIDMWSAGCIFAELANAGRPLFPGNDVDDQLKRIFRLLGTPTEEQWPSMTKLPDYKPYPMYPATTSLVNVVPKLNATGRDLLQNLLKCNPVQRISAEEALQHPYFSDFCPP
UniProt Q8N752, sequence (whole entry, looked up): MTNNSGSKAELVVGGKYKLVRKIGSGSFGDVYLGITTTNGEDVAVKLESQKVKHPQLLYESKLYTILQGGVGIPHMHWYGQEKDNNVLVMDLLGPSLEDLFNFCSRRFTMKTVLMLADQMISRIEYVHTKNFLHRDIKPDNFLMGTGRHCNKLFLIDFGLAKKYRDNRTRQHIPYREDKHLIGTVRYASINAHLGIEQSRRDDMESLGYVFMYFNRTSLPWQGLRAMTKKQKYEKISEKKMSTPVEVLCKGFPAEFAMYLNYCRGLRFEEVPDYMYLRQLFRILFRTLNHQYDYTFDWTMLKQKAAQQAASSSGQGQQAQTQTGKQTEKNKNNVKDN
UniProt P08631, sequence (whole entry, looked up): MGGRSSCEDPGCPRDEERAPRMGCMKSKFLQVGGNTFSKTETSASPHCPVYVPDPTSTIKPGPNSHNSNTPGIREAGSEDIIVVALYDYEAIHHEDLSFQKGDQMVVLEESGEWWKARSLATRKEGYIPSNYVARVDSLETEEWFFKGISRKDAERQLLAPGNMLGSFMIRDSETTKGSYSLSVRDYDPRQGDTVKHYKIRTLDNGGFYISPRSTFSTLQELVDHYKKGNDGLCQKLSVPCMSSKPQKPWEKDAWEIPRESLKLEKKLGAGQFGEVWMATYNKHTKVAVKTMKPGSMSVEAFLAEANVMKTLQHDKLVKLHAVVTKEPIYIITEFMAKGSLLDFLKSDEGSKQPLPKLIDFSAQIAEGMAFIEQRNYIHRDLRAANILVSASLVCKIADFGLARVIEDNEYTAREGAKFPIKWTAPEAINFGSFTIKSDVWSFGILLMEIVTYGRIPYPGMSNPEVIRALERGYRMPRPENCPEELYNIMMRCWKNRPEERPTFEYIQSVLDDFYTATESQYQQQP

Block 1
Cell line: Huh-7
Tested at: 10 µM
Time: 24 h
SMILES	viability
CC1(C)OC(=O)NC1=O	97.3%
CCC1(c2ccccc2)C(=O)NCNC1=O	99.7%
CCCN(CCC)CCc1cccc2c1CC(=O)N2	95.7%
Nc1ncnc2nc[nH]c12	96.6%
Cc1cc(C2CCCCC2)n(O)c(=O)c1	56.2%
Nc1nc2ncc(CNc3ccc(C(=O)N[C@@H](CCC(=O)O)C(=O)O)cc3)nc2c(=O)[nH]1	102%
CCN(CC)CCOC(=O)C(c1ccccc1)c1ccccc1	89.6%

Block 2
SMILES: CCC(=O)N[C@H]1CC[C@@H](C(=O)N(C)c2ccc(-c3nc4ccccc4o3)cc2)C1
Read-out: cell-free assay
Method: competition with immobilised ligand
Tested at: 1 µM
target	remaining binding [%]
PIK3CG (Homo sapiens, UniProt P48736)	99
STK36 (Homo sapiens, UniProt Q9NRP7)	100
MET (Homo sapiens, UniProt P08581, Y1235D)	100
ERBB4 (Homo sapiens, UniProt Q15303)	100
TAOK2 (Homo sapiens, UniProt Q9UL54)	76
ROCK1 (Homo sapiens, UniProt Q13464)	100
LATS1 (Homo sapiens, UniProt O95835)	48
PIP5K1A (Homo sapiens, UniProt Q99755)	100
CSNK1A1L (Homo sapiens, UniProt Q8N752)	100
PIP5K1C (Homo sapiens, UniProt O60331)	100
CDK5 (Homo sapiens, UniProt Q00535)	87
SRPK1 (Homo sapiens, UniProt Q96SB4)	100
NEK2 (Homo sapiens, UniProt P51955)	100
MET (Homo sapiens, UniProt P08581, M1250T)	92
RIPK4 (Homo sapiens, UniProt P57078)	50
HCK (Homo sapiens, UniProt P08631)	100
CSNK1E (Homo sapiens, UniProt P49674)	93

Block 3
Cell line: mouse MPNST tumor cells
Method: high-content immunofluorescence imaging
Refers to: nuclear SOX9
Tested at: 10 µM
Time: 12 h
Notes: mean of 2 replicates
Reference: DMSO control
Direction: higher = more nuclear SOX9
Structure (SMILES)	nuclear SOX9 intensity
O=C(O)Cc1cccc(OCCCN(Cc2cccc(C(F)(F)F)c2Cl)CC(c2ccccc2)c2ccccc2)c1	101 % of DMSO
CCOc1ccc(NC(=S)N2CCC(C(O)(c3ccccc3)c3ccccc3)CC2)cc1	106 % of DMSO
CC1(C)O[C@@H]2C[C@H]3[C@@H]4C[C@H](F)C5=CC(=O)CC[C@]5(C)[C@H]4[C@@H](O)C[C@]3(C)[C@]2(C(=O)CO)O1	66.4 % of DMSO

Block 4
Target: Dual serine/threonine and tyrosine protein kinase (DSTYK, Homo sapiens, UniProt Q6XUX3)
UniProt Q6XUX3, sequence (whole entry, looked up): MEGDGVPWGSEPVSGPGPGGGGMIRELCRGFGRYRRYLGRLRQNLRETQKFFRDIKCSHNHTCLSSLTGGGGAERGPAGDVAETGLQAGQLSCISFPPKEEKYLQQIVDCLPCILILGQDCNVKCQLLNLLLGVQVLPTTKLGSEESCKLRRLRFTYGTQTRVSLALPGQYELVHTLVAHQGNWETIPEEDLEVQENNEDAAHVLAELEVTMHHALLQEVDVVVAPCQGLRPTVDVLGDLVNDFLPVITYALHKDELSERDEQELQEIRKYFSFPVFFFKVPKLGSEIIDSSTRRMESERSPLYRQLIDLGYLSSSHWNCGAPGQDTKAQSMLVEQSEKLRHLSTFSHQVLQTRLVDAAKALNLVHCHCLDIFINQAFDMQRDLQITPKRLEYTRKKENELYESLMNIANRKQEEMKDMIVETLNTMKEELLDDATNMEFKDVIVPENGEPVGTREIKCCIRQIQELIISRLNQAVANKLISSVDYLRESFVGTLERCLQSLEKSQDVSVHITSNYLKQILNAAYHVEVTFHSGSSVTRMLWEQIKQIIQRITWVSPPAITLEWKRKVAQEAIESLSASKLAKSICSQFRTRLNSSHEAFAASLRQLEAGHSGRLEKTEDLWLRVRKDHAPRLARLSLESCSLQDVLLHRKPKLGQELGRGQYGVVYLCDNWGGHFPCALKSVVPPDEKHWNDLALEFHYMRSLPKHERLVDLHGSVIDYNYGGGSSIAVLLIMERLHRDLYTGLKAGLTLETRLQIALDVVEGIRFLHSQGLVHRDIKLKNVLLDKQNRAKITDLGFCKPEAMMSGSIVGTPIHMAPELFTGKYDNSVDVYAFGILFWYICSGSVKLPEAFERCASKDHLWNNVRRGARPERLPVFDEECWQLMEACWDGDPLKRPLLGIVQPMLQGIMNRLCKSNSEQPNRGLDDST
Read-out: enzyme activity
Action: inhibitor
Tested at: 0.5 µM
Reference: control
Structure (SMILES)	remaining activity [%]
O=c1cc(-c2cccc3c2Sc2ccccc2S3)oc(N2CCOCC2)c1	93.4
Cc1cc2ncc(-c3ccccc3)nc2cc1C	95.5
Cc1nc2cc3nc(-c4cccs4)cnc3cc2n1C	106
Cn1nc2c3c(cccc31)C(=O)c1ccccc1-2	101
Nc1cccc(-c2cc3c(Oc4cccc(O)c4)ncnc3[nH]2)c1	83.4
N#C/C(=C\c1ccc(O)c(O)c1)C(=O)NCc1ccccc1	91
O=C1c2ccccc2-c2n[nH]c3cccc1c23	99.5
COc1cc2c(cc1OC)-c1[nH]nc(Nc3cccc(F)c3)c1C2	93.3
O=C1C(Cl)=C(N2C(=O)CCC2=O)C(=O)c2ccccc21	95.4
CN(C)C[C@H]1CCn2c(c(C3=C(c4cn(C)c5ccccc45)C(=O)NC3=O)c3ccccc32)C1	89.4
N#Cc1c(NC(=O)c2cccc3ccccc23)sc2c1CCCC2	100
CCN(CC)C(=O)c1ccc(Nc2nc(OCC3CCCCC3)c3[nH]cnc3n2)cc1	106
Ic1cccc(CSc2nnc(-c3ccncc3)o2)c1	94.8
c1ccc(-c2cnc(Nc3ccc(OCCN4CCCC4)cc3)s2)cc1	90.8
COc1cc2ncnc(Nc3cccc(Cl)c3)c2cc1OC	90.8
CCOc1nc(NC(=O)Cc2cc(OC)ccc2OC)cc(N)c1C#N	97.4
O=C(Nc1cccc(Nc2nccc(Nc3cccc(C(F)(F)F)c3)n2)c1)C1CC1	93.8
Cc1cn(-c2cc(NC(=O)c3ccc(C)c(Nc4nccc(-c5cccnc5)n4)c3)cc(C(F)(F)F)c2)cn1	107

A few entries again (block 2):
target	remaining binding [%]
PIP5K1A (Homo sapiens, UniProt Q99755)	100
CSNK1A1L (Homo sapiens, UniProt Q8N752)	100
PIP5K1C (Homo sapiens, UniProt O60331)	100
CDK5 (Homo sapiens, UniProt Q00535)	87
SRPK1 (Homo sapiens, UniProt Q96SB4)	100
